# Published values gathered from unrelated publications.
# Parts stem from different laboratories: compare values within a part only. “And” joins repeats or separate records; there may be more than shown.
# Chain of UniProt P10721 (whole entry, unmodified, looked up): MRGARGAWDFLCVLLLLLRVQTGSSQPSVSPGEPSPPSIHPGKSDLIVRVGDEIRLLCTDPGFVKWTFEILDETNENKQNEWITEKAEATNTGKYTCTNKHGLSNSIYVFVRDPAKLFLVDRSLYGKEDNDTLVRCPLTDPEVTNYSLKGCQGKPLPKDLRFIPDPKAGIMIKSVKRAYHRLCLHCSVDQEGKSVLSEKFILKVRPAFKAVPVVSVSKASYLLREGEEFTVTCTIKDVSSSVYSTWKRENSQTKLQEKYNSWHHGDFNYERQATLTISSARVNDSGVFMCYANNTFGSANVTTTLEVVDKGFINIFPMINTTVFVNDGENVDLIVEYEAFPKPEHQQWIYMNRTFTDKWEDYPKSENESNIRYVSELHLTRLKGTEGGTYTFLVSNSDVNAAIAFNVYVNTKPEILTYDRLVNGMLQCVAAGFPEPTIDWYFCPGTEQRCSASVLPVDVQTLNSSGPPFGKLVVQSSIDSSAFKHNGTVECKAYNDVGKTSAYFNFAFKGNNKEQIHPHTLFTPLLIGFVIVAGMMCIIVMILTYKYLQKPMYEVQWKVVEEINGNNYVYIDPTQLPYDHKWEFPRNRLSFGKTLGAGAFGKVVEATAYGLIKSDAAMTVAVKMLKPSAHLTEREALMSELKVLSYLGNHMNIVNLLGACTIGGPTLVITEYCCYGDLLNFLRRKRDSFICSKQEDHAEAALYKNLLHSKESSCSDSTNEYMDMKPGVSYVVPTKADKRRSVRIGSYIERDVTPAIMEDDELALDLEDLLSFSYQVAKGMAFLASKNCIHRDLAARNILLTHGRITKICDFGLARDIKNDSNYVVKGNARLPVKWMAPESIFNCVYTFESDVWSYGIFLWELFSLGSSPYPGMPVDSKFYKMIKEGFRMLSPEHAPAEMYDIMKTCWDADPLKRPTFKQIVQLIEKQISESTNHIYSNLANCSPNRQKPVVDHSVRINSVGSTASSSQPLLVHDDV
# Chain of UniProt Q9BRS2 (whole entry, looked up): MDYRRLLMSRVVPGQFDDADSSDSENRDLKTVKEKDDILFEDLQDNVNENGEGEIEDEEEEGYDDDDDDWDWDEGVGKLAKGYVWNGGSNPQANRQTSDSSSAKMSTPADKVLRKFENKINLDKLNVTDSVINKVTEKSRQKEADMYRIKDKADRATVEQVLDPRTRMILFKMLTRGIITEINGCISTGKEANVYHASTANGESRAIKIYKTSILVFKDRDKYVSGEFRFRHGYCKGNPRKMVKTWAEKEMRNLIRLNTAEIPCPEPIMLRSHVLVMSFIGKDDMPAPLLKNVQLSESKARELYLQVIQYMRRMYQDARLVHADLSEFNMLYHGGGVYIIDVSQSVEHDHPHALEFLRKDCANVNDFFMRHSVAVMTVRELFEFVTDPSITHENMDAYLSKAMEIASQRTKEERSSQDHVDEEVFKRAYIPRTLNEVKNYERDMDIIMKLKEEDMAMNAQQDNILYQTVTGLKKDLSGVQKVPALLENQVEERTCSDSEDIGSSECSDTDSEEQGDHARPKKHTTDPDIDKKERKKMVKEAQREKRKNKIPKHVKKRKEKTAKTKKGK
# Chain of UniProt P28482 (whole entry, looked up): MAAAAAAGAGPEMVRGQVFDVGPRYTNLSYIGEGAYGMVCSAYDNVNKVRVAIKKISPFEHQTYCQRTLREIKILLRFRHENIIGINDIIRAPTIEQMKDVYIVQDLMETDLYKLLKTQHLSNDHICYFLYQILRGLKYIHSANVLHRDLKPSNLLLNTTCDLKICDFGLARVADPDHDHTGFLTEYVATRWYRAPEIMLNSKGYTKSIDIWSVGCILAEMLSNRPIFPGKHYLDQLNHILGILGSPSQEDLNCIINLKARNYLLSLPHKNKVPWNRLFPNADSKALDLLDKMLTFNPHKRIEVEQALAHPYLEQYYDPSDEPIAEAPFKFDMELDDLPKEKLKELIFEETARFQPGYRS
# Chain of UniProt P43403 (whole entry, looked up): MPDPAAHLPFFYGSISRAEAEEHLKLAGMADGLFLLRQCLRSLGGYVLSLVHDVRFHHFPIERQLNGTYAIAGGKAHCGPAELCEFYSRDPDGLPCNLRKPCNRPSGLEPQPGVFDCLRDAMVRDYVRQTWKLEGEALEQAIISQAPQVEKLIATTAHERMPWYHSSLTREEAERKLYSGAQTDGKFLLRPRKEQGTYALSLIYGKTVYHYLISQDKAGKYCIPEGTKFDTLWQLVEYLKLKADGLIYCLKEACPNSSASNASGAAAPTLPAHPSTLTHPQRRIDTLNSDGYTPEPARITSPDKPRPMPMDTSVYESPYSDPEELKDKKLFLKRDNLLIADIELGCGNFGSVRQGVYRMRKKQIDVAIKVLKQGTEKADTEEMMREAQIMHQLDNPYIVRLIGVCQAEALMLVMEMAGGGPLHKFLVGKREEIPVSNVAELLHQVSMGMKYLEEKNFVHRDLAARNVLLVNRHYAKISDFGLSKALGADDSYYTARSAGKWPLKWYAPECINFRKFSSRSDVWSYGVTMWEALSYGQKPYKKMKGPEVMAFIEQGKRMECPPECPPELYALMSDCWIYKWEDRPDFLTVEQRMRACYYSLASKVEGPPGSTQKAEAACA
# Chain of UniProt P51957 (whole entry, looked up): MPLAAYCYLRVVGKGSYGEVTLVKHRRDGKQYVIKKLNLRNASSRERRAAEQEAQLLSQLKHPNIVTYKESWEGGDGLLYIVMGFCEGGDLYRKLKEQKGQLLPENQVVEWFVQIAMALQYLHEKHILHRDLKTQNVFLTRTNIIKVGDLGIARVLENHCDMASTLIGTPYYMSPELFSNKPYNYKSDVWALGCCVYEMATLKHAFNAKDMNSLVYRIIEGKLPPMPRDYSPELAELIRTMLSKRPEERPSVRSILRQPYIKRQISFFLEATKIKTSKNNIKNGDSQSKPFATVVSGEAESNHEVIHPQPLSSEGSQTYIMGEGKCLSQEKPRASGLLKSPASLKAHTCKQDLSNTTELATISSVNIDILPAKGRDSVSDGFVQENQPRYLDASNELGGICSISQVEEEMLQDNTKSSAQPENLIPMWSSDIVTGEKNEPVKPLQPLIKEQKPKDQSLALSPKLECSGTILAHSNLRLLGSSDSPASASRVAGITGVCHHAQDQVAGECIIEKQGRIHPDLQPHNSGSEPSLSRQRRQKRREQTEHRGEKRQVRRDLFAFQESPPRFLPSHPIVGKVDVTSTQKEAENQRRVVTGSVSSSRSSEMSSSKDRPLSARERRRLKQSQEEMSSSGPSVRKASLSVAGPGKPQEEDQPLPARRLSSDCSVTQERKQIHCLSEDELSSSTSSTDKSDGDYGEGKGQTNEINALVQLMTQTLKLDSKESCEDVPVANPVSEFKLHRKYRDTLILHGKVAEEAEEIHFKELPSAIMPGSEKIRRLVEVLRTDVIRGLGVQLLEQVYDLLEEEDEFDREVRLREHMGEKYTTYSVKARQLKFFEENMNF
# Chain of UniProt Q8IVW4 (whole entry, looked up): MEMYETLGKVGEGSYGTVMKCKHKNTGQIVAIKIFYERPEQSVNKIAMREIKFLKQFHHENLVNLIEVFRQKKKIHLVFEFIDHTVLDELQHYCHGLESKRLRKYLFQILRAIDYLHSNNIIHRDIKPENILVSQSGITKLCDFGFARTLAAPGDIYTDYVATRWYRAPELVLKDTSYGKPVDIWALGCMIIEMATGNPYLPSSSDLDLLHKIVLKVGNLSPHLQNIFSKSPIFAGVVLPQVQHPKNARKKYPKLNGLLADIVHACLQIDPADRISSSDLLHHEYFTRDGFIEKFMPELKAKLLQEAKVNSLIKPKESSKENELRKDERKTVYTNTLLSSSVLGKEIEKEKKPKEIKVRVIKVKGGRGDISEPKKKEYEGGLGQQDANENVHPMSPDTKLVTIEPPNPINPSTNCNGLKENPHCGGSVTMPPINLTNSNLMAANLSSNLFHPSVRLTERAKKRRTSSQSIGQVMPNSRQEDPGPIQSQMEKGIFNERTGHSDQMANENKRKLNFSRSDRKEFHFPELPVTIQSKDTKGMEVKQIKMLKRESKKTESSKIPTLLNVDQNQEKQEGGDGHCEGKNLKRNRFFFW
# Chain of UniProt O96017 (whole entry, looked up): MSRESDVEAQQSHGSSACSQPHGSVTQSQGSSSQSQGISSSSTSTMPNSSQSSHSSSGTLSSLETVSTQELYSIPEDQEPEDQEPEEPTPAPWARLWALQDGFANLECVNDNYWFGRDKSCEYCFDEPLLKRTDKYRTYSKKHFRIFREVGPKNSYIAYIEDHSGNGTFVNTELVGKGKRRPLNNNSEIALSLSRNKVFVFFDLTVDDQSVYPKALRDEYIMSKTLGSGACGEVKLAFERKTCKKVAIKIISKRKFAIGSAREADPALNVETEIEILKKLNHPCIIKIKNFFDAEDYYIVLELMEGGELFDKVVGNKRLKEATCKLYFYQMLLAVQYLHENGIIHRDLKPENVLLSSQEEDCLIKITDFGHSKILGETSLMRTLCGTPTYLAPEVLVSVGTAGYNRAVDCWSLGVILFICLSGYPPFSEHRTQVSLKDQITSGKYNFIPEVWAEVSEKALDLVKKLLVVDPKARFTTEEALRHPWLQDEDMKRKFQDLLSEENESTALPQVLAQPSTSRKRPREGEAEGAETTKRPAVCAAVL
# Chain of UniProt Q9HBH9 (whole entry, looked up): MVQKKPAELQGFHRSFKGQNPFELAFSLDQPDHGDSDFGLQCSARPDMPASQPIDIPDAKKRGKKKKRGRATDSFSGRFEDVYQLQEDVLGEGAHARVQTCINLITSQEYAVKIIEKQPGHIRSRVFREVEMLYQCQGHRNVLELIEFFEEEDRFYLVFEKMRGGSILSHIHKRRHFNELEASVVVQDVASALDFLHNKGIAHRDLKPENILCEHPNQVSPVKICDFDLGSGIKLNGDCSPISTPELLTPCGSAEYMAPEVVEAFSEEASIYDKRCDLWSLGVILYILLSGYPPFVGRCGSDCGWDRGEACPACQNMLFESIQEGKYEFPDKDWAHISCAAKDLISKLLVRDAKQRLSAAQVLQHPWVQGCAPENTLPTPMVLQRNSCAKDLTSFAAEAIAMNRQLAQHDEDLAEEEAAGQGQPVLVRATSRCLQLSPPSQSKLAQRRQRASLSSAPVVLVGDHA

# Sample 1 — cell line: A-375; tested at: 100 µM; time: 18 h
SMILES,viability
Cc1ccc(S(=O)(=O)NC(=O)NN2CCCCCC2)cc1,60.5%
Clc1ccc(C(Cn2ccnc2)OCc2ccc(Sc3ccccc3)cc2)c(Cl)c1 (stereo not drawn),11%
CC(C)NCC(O)c1cc(O)cc(O)c1 (stereo not drawn),93.9%
CCCCOc1cc(C(=O)OCCN(CC)CC)ccc1N,104%
C[C@@H](O)[C@H]1C(=O)N2C(C(=O)O)=C(SCCN=CN)C[C@H]12,107%
CC(C)(Sc1cc(C(C)(C)C)c(O)c(C(C)(C)C)c1)Sc1cc(C(C)(C)C)c(O)c(C(C)(C)C)c1,100%
O=c1cc(-c2ccc(O)cc2)oc2cc(O)cc(O)c12,84.9%
CN(C)C(=O)COC(=O)Cc1ccc(OC(=O)c2ccc(NC(=N)N)cc2)cc1,98.7%
CN(C)CCc1c[nH]c2ccc(CS(=O)(=O)N3CCCC3)cc12,95.2%
COc1c(N2C[C@@H]3CCCN[C@@H]3C2)c(F)cc2c(=O)c(C(=O)O)cn(C3CC3)c12,65.6%
CC(C)(C)NCC(O)c1cc(O)cc(O)c1 (stereo not drawn),103%

# Sample 2 — read-out: cell-free assay; technique: competition with immobilised ligand; tested at: 1 µM
# SMILES: N#CC1(c2ccccn2)CCN(Cc2cc(C(=O)N3CCCC3)c(=O)n3ccccc23)CC1
target,remaining binding [%]
"Mitogen-activated protein kinase kinase kinase 12 (MAP3K12, Homo sapiens, UniProt Q12852)",100
"Rhodopsin kinase GRK1 (GRK1, Homo sapiens, UniProt Q15835)",85
"Tyrosine-protein kinase FRK (FRK, Homo sapiens, UniProt P42685)",80
"Mast/stem cell growth factor receptor Kit (KIT, Homo sapiens, UniProt P10721, V559D)",100
"ALK tyrosine kinase receptor (ALK, Homo sapiens, UniProt Q9UM73, L1196M)",100
"Mitogen-activated protein kinase 1 (MAPK1, Homo sapiens, UniProt P28482)",98
"TGF-beta receptor type-1 (TGFBR1, Homo sapiens, UniProt P36897)",72
"Protein kinase C theta type (PRKCQ, Homo sapiens, UniProt Q04759)",100
"Cyclin-dependent kinase-like 3 (CDKL3, Homo sapiens, UniProt Q8IVW4)",78
"Receptor-type tyrosine-protein kinase FLT3 (FLT3, Homo sapiens, UniProt P36888, F691L/ITD)",90
"Serine/threonine-protein kinase RIO1 (RIOK1, Homo sapiens, UniProt Q9BRS2)",95
"Leucine-rich repeat serine/threonine-protein kinase 2 (LRRK2, Homo sapiens, UniProt Q5S007)",100
"Dual specificity testis-specific protein kinase 1 (TESK1, Homo sapiens, UniProt Q15569)",90
"Cyclin-dependent kinase 18 (CDK18, Homo sapiens, UniProt Q07002)",100
"NUAK family SNF1-like kinase 1 (NUAK1, Homo sapiens, UniProt O60285)",86
"Tyrosine-protein kinase ABL1, phosphorylated (ABL1, Homo sapiens, UniProt P00519, H396P)",100
"Fibroblast growth factor receptor 3 (FGFR3, Homo sapiens, UniProt P22607)",88
"Serine/threonine-protein kinase Chk2 (CHEK2, Homo sapiens, UniProt O96017)",92
"Protein kinase C epsilon type (PRKCE, Homo sapiens, UniProt Q02156)",79
"Tyrosine-protein kinase ZAP-70 (ZAP70, Homo sapiens, UniProt P43403)",100

# Sample 3 — read-out: enzyme activity; mode: inhibitor; tested at: 0.5 µM; relative to: control
# SMILES: Cc1nc(Nc2ncc(C(=O)Nc3c(C)cccc3Cl)s2)cc(N2CCN(CCO)CC2)n1
target,remaining activity
"Ephrin type-A receptor 5 (EPHA5, Homo sapiens, UniProt P54756)",0.244%
"Interleukin-1 receptor-associated kinase 4 (IRAK4, Homo sapiens, UniProt Q9NWZ3)",88.5%
"Mast/stem cell growth factor receptor Kit (KIT, Homo sapiens, UniProt P10721)",3.27%
"Protein kinase C iota type (PRKCI, Homo sapiens, UniProt P41743)",101%
"Serine/threonine-protein kinase 38 (STK38, Homo sapiens, UniProt Q15208)",101%
"Mitogen-activated protein kinase kinase kinase kinase 2 (MAP4K2, Homo sapiens, UniProt Q12851)",79.4%
"Serine/threonine-protein kinase PLK2 (PLK2, Homo sapiens, UniProt Q9NYY3)",98%
"MAP kinase-interacting serine/threonine-protein kinase 2 (MKNK2, Homo sapiens, UniProt Q9HBH9)",100%
"Mitogen-activated protein kinase kinase kinase 10 (MAP3K10, Homo sapiens, UniProt Q02779)",93.7%
"Serine/threonine-protein kinase Nek4 (NEK4, Homo sapiens, UniProt P51957)",90.7%

# Other studies, line by line
Compound,host,sample,route,dose,measurement,result
COc1ccc(-c2c(Nc3ccccn3)[nH]c3c(C4=CCCCC4)c(-c4ccccc4)nn3c2=O)cc1,human,plasma,oral,200 mg twice daily,AUC(0-tau),133 µg·h/mL and 124 µg·h/mL

# Repeated from above (sample 2):
target,remaining binding [%]
"Tyrosine-protein kinase FRK (FRK, Homo sapiens, UniProt P42685)",80
"Mast/stem cell growth factor receptor Kit (KIT, Homo sapiens, UniProt P10721, V559D)",100
